Measurements of several laboratories.
Compare with care: the assays were run in different laboratories. Numbers after ± are the reported error.

`C=C1/C(=C\C=C2/CCC[C@]3(C)[C@@H]([C@H](C)/C=C/[C@H](C)C(C)C)CC[C@@H]23)C[C@@H](O)C[C@@H]1O` has a maximum inhibition of 0% (human coronavirus OC43; virus-induced cell killing; MRC-5; maximum over 10 doses).
`CN1CCN(S(=O)(=O)c2cc([N+](=O)[O-])ccc2N(CCOS(C)(=O)=O)CCOS(C)(=O)=O)CC1` — result for “EFS ratio (T/C)”: 19.2 (NSG mice, sample BG PDX; intraperitoneal, 25 mg/kg weekly x3; reference: treated over vehicle).
`CC(C)C[C@H](NC(=O)CNC(=O)c1cc(Cl)ccc1Cl)B(O)O` has a maximum inhibition of 0% (human coronavirus OC43; virus-induced cell killing; MRC-5; maximum over 10 doses).
With `COc1cc(CCC[P+](c2ccccc2)(c2ccccc2)c2ccccc2)c(OC)c2c1OCO2.[I-]` the GI50 was -5.62 log M (CAKI-1; SRB).
`O=C(O)/C=C/C(=O)O.Oc1cccc2[nH]cc(CCNC3CCCCC3)c12` — result for “body temperature change”: -2.3 ± 0.7 °C (C57BL/6J mice; subcutaneous, 30 mg/kg; reference: pre-session baseline).
For `CC(C)(C)c1cc(C(=O)/C(C#N)=N/Nc2cccc(Cl)c2)no1`, the maximum inhibition was 12.5% (human coronavirus OC43; virus-induced cell killing; MRC-5; screen).
`C=CCNCCc1c[nH]c2cccc(O)c12.C=CCNCCc1c[nH]c2cccc(O)c12.O=C(O)/C=C/C(=O)O`: “body temperature change” -6.5 ± 0.7 °C (C57BL/6J mice; subcutaneous, 30 mg/kg; reference: pre-session baseline).
The maximum inhibition of `NC(=O)Nc1cc(-c2cccc(F)c2)sc1C(=O)N[C@H]1CCCNC1` is reported as 0% (human coronavirus OC43; virus-induced cell killing; MRC-5; maximum over 10 doses).
With `Oc1ccccc1-c1nc(-c2cccs2)c(-c2cccs2)[nH]1` the cytotoxicity efficacy was -23.8% (Vero-E6; CellTiter-Glo ATP; concentration not given, 72 h, retest 8-point duplicates; reference: DMSO 0%, hyamine -100%, more negative, more toxic).
With `COc1c(CCC[P+](c2ccccc2)(c2ccccc2)c2ccccc2)cc2c(c1OC)OCO2.[I-]` the LC50 was > -4 log M (OVCAR-4; SRB).
Under “body temperature change”, `CCNCCc1c[nH]c2cccc(O)c12.CCNCCc1c[nH]c2cccc(O)c12.O=C(O)CCC(=O)O` is recorded as -0.5 ± 0.1 °C (C57BL/6J mice; subcutaneous, 1 mg/kg; reference: pre-session).
For `N=C(N)c1ccc(OCc2ccc(Br)cc2COc2ccc(C(=N)N)cc2)cc1`, “MIC of compound in combination” read 6.25 µg/mL (Escherichia coli; checkerboard; BW25113; concentration not given, lowest-FICI combination, with: rifampicin).
`CCOC(=O)Nc1ccc(NCc2ccc(F)cc2)cc1N` gave an inhibition of -16.9% (THP-1; pyroptotic LDH release; 2 µM, 40 min, with: LPS then nigericin).
With `Cc1ccc(S(=O)(=O)/C=C/C#N)cc1` the maximum inhibition was 2.96% (human coronavirus OC43; virus-induced cell killing; MRC-5; screen).
`C[C@]12CC[C@H]3[C@@H](CC=C4CC(O)CC[C@@]43CO)[C@@H]1CCC2O` (some centres unmarked) — result for bridging fibrosis: “decreased” (Sirius Red staining; rat, GAN diet-induced MASH, liver; dose not given; reference: GAN diet plus vehicle).
For `CCCCCOC(=O)Nc1nc(=O)n([C@@H]2O[C@H](C)[C@@H](O)[C@H]2O)cc1F`, the maximum inhibition was 0% (human coronavirus OC43; virus-induced cell killing; MRC-5; maximum over 10 doses).
For `CC(C)NCCc1c[nH]c2cccc(O)c12.O=C(O)/C=C/C(=O)O`, “body temperature change” read -0.3 ± 0.3 °C (C57BL/6J mice; subcutaneous, 1 mg/kg; reference: pre-session baseline).
For `COc1ccc2c(c1)[nH]c1c(C)nccc12`, the DNA methylation was 90.2% (DU-145; bisulfite pyrosequencing, item: RASSF1A promoter CpG site 12; 10 µM, 16 h).
For `COc1ccc(CCC2CCCC(CCc3ccc(OC)cc3)N2C[C@@H](O)CO)cc1.Cl` (stereo in doubt), “time of significant inhibition” read 50 to 60 min (methamphetamine-evoked dopamine release; rat striatal slices; 30 µM, with: methamphetamine 5 µM).
`Nc1ncnc2c1ncn2[C@@H]1O[C@@H]2COP(=O)(O)O[C@H]3[C@@H](O)[C@H](n4cnc5c(=O)[nH]cnc54)O[C@@H]3COP(=O)(O)O[C@H]2[C@H]1O` has a fold enrichment of 2.13 (Zika virus; upregulated Reactome pathway, RNA sequencing, item: Adaptive Immune System (R-HSA-1280218); HFF-1; reference: ZIKV-infected untreated).
The cytotoxicity efficacy of `CCCN1CCN(CCCNC(=O)c2cc3c(Cl)nc4ccccc4c3s2)CC1` is reported as -17.1% (Vero-E6; CellTiter-Glo ATP; concentration not given, 72 h, second round 5-point; reference: DMSO 0%, hyamine -100%, more negative, more toxic).
`COc1cc(CCNCc2ccccc2OC)c(OC)cc1Br`: “loss of potency” “no effect” (5-HT2C receptor V102L, human; Gq dissociation, BRET; reference: wild type).
The IC50 of `N.N.[Cl][Pt][Cl]` is reported as 38.3 µM (A2780cisR; cell viability, MTT; 48 h).
For `CC[C@]1(O)C[C@@H]2CN(CCc3c([nH]c4ccccc34)[C@@](C(=O)OC)(c3cc4c(cc3OC)N(C)[C@H]3[C@@](O)(C(=O)OC)[C@H](OC(C)=O)[C@]5(CC)C=CCN6CC[C@]43[C@@H]65)C2)C1`, the maximum inhibition was 3.11% (human coronavirus OC43; virus-induced cell killing; MRC-5; screen).
For `CCCCNCCc1c[nH]c2cccc(O)c12.O=C(O)/C=C/C(=O)O`, “body temperature change” read -0.2 ± 0.1 °C (C57BL/6J mice; subcutaneous, 0.3 mg/kg; reference: pre-session baseline).
`Cc1cn([C@H]2O[C@@H](CO[P@@](=O)(N[C@@H](C)C(=O)OC(C)C)Oc3ccccc3)[C@H](O)[C@H]2F)c(=O)[nH]c1=O` — result for “change in HBsAg”: -0.07 log10 IU/mL (adults with chronic hepatitis B; 25 mg, day 28; reference: baseline).
The maximum inhibition of `CC(=O)O[C@]1(C(C)=O)CC[C@H]2[C@@H]3C[C@H](C)C4=CC(=O)CC[C@]4(C)[C@H]3CC[C@@]21C` is reported as 1.57% (human coronavirus OC43; virus-induced cell killing; MRC-5; screen).
Under “maximum cellular uptake”, `N[C@@H](C[18F])C(=O)O` is recorded as 1.6 ± 0.2 %ID/100 µg protein (MIA PaCa-2 tumour model; host not given; 5 min).
`CC[C@H](C)[C@@H]1NC(=O)[C@@H]2CCCN2C(=O)[C@H](CC(C)C)NC(=O)[C@H](CC(C)C)NC(=O)CNC(=O)[C@@H](NC(=O)[C@@H](NC(=O)[C@H](CC(=O)O)NC(=O)CNC(=O)[C@@H](NC(=O)[C@H](C)NC(=O)CNC(=O)[C@H](CCCCN)NC(=O)[C@H](CC(C)C)NC(=O)[C@H](CC(C)C)NC(=O)[C@H](CCCCN)NC(=O)CNC(=O)[C@@H](NC(=O)[C@@H](N)CC(C)C)C(C)C)C(C)C)C(C)C)CSSC[C@@H](C(=O)O)NC1=O` — result for “log2 fold change”: 0.995 (RNA-seq, item: Casp1; mouse, traumatic brain injury model, frontal cortex and hippocampus; dose not given; reference: TBI alone).

Repeated from above:
The cytotoxicity efficacy of `CCCN1CCN(CCCNC(=O)c2cc3c(Cl)nc4ccccc4c3s2)CC1` is reported as -17.1% (Vero-E6; CellTiter-Glo ATP; concentration not given, 72 h, second round 5-point; reference: DMSO 0%, hyamine -100%, more negative, more toxic).
`CC(C)C[C@H](NC(=O)CNC(=O)c1cc(Cl)ccc1Cl)B(O)O` has a maximum inhibition of 0% (human coronavirus OC43; virus-induced cell killing; MRC-5; maximum over 10 doses).
For `CC(C)(C)c1cc(C(=O)/C(C#N)=N/Nc2cccc(Cl)c2)no1`, the maximum inhibition was 12.5% (human coronavirus OC43; virus-induced cell killing; MRC-5; screen).
